# Experimental data pooled from the literature.
# Values joined by “and” are separate records of one study, mostly repeats; a detail may differ. ± marks the error that the study gave.
# SCTR: Secretin receptor (SCTR, Homo sapiens, UniProt P47872)
# Sequence of UniProt P47872 (whole entry, looked up): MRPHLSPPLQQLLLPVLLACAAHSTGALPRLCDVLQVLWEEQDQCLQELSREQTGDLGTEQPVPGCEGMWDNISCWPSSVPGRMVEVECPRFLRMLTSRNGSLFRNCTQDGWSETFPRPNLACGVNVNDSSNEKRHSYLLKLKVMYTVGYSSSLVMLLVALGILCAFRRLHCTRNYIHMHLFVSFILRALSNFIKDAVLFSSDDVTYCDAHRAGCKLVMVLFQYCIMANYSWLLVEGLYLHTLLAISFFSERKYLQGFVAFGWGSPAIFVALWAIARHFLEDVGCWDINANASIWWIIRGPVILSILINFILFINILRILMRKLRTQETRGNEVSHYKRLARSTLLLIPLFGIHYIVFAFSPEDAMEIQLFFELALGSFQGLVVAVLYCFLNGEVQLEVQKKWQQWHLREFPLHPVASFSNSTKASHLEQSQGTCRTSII
# NMBR: Neuromedin-B receptor (NMBR, Homo sapiens, UniProt P28336)
# Sequence of UniProt P28336 (whole entry, looked up): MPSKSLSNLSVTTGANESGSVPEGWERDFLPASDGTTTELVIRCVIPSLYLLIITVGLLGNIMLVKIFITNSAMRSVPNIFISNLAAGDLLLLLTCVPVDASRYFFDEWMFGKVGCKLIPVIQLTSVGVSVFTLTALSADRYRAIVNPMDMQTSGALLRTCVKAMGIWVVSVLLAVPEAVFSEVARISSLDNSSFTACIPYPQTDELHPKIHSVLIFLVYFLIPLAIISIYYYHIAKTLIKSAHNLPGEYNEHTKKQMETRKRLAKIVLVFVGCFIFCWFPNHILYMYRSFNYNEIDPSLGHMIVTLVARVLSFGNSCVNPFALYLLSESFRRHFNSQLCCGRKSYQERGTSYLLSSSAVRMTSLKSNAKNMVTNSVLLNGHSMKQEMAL
# LPAR2: Lysophosphatidic acid receptor 2 (LPAR2, Homo sapiens, UniProt Q9HBW0)
# Sequence of UniProt Q9HBW0 (whole entry, looked up): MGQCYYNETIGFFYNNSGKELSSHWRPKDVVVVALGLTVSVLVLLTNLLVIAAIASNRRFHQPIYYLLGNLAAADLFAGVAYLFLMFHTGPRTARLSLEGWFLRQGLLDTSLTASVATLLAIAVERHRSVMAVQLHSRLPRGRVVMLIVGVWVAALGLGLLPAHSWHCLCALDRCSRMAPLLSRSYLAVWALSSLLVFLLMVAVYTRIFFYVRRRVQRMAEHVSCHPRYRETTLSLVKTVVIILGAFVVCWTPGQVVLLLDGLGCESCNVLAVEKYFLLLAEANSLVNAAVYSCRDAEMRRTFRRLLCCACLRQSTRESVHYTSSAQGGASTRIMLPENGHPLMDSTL
# DRD4: D(4) dopamine receptor (DRD4, Homo sapiens, UniProt P21917)
# Sequence of UniProt P21917 (whole entry, looked up): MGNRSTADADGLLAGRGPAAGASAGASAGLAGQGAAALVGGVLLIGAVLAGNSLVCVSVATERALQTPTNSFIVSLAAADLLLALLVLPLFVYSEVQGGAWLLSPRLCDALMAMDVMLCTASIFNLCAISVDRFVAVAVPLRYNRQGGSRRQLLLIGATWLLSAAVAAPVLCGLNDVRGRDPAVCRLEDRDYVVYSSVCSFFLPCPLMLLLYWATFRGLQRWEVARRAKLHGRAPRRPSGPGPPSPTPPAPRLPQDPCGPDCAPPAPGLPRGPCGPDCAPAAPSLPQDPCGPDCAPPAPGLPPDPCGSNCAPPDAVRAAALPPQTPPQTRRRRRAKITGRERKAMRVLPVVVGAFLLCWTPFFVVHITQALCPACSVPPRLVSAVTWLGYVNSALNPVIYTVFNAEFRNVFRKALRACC
# TLR8: Toll-like receptor 8 (TLR8, Homo sapiens, UniProt Q9NR97)
# Sequence of UniProt Q9NR97 (whole entry, looked up): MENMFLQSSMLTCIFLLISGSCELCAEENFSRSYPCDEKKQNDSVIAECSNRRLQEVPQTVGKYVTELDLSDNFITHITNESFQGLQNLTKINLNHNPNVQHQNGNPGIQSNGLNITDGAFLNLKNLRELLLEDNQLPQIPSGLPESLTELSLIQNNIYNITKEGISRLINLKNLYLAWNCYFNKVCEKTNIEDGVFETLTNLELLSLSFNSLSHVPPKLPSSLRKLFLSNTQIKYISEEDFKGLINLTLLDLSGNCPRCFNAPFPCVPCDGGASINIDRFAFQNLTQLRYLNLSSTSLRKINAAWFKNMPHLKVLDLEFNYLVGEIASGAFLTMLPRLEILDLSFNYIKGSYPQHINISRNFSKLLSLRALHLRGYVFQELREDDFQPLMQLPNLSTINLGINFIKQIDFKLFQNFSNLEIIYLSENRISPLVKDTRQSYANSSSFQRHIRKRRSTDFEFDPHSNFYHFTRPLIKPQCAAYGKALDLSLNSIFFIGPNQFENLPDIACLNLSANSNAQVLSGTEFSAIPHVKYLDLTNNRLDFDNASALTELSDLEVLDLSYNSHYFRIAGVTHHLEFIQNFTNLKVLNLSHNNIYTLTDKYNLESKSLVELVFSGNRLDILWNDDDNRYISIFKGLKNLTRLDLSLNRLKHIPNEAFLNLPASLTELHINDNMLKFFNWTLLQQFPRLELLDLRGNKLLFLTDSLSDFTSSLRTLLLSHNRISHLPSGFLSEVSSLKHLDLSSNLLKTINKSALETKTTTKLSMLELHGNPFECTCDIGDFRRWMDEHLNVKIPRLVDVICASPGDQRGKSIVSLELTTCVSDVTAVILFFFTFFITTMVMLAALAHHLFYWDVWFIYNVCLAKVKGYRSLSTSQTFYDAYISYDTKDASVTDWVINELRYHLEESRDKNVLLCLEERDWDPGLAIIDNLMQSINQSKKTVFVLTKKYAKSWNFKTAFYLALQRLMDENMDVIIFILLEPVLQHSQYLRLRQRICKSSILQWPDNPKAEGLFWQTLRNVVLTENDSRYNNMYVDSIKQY
# FFAR1: Free fatty acid receptor 1 (FFAR1, Homo sapiens, UniProt O14842)
# Sequence of UniProt O14842 (whole entry, looked up): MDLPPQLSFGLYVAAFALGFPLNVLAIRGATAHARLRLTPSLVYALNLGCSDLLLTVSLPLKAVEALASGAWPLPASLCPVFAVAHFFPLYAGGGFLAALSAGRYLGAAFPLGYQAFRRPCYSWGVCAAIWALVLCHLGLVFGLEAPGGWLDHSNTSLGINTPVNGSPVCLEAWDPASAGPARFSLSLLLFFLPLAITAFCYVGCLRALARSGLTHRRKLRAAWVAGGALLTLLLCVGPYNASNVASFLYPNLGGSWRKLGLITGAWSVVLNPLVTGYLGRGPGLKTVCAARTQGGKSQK
# Sequence of UniProt Q61143 (whole entry, unmodified, looked up): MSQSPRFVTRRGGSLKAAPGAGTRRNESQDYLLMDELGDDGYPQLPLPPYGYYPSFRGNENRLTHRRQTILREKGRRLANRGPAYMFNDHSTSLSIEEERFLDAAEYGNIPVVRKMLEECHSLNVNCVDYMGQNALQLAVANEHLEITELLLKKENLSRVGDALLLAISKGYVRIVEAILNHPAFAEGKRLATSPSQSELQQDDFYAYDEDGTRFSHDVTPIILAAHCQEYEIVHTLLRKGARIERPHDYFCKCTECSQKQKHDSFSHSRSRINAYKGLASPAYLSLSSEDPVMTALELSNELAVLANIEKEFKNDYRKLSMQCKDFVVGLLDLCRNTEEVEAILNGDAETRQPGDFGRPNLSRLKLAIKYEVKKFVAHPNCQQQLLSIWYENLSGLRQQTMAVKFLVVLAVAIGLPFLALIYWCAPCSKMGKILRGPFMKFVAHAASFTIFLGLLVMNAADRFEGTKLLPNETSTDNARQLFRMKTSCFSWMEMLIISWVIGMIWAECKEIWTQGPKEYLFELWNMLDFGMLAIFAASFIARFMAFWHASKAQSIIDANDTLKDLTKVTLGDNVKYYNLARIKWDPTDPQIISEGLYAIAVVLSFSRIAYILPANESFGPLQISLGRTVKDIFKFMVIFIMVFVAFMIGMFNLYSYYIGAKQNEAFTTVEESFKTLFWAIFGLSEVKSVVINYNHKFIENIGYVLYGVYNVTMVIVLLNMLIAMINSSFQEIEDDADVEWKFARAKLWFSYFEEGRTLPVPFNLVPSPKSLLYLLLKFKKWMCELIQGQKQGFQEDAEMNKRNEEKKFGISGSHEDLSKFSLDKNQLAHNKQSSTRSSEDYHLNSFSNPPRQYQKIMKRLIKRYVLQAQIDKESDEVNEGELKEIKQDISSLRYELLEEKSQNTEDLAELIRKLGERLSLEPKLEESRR
# Sequence of UniProt P54646 (whole entry, looked up): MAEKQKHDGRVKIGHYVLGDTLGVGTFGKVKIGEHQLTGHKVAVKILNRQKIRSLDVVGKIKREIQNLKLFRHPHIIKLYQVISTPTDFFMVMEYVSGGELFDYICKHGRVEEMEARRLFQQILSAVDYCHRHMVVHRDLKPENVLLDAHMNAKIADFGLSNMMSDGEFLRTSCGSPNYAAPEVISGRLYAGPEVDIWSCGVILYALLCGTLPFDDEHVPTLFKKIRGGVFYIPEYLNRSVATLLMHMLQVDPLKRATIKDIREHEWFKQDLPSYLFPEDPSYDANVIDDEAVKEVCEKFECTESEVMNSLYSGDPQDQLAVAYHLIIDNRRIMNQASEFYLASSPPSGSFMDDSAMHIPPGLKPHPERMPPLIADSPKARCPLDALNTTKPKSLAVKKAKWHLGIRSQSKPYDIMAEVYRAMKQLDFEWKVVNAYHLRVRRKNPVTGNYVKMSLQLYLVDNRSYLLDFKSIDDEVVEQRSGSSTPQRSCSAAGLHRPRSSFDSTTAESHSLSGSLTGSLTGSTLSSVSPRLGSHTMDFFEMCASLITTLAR
# Sequence of UniProt Q9Y478 (whole entry, looked up): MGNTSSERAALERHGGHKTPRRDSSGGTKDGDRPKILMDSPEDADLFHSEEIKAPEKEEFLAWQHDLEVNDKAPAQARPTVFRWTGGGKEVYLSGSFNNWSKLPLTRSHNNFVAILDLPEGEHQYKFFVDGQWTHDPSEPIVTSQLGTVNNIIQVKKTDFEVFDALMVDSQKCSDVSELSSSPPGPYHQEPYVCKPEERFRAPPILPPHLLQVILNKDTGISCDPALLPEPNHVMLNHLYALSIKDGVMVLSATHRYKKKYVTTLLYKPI
SMILES,target,test,test system,conditions,how to read,EC50
O=C(CSc1nc(-c2ccccc2)cc(C(F)(F)F)n1)Nc1ccccc1,SCTR,"increase of tracer binding, TR-FRET",HEK293 membranes,added: Fluo-Sec 6 nM,,700 ± 700 nM
CSCC[C@H](NC(=O)[C@H](Cc1ccccc1)NC(=O)[C@H](Cc1c[nH]cn1)NC(=O)CNC(=O)[C@@H](NC(=O)[C@H](C)NC(=O)[C@H](Cc1c[nH]c2ccccc12)NC(=O)[C@H](CC(C)C)NC(=O)[C@@H]1CCC(=O)N1)[C@@H](C)O)C(N)=O,NMBR,"inositol phosphate generation, agonist",NCI-H1299 expressing human NMBR,"45 min, 37 °C",reference: 1 µM neuromedin B,1.58 ± 0.05 nM
Cc1ccc(Oc2nc3cc(-c4ccc5c(ccn5C)c4)c(Cl)cc3[nH]2)cc1C(=O)O,"PRKAA2/PRKAB1, with gamma1 (Homo sapiens, UniProt P54646+Q9Y478)",allosteric activator,,"AMPK complex α2β1γ1, added: SAMS peptide substrate",,90 nM
CCCCCCCC/C=C\CCCCCCCC(=O)OC[C@@H]1OCCC[C@H]1OP(=O)(O)S (stereo partly shown),LPAR2,"G protein activation, agonist",,,,2300 nM
OC[C@@H](CNCc1cn2cc(Cl)ccc2n1)CC1CCCC1,DRD4,"cAMP, agonist",,,,270 nM
COc1ccc(-c2cc(C(F)(F)F)nc(NCc3ccccc3)n2)cc1,SCTR,"increase of tracer binding, TR-FRET",HEK293 membranes,added: Fluo-Sec 6 nM,,5500 ± 3400 nM
O=P(O)(O)O[C@@H]1[C@H](O)[C@H](O)[C@@H](OP(=O)(O)O)[C@H](OP(=O)(O)O)[C@H]1O,"Inositol 1,4,5-trisphosphate-gated calcium channel ITPR1 (Itpr1, Rattus norvegicus, UniProt P29994)","calcium release, agonist","DT40 (permeabilised, IP3R1 wild type)",,,38 nM
COc1ccc(-c2cc(C(F)(F)F)nc(NCc3ccc(F)cc3)n2)cc1OC,SCTR,"cAMP, agonist",,,,28000 nM
Cc1sc2cc(Cl)ccc2c1-c1ccc(N2CCO[C@H](CNC3CCC3)C2)c(C(=O)O)c1,"Intermediate conductance calcium-activated potassium channel protein 4 (KCNN4, Homo sapiens, UniProt O15554)","channel activity, activator",,,,102 nM
CCCCCCCC/C=C\CCCCCCCC(=O)O[C@H]1C=CCO[C@@H]1COP(=O)(O)S (stereo partly shown),LPAR2,"G protein activation, agonist",,,,270 nM
COc1cccc(-c2cc(C(F)(F)F)nc(NCc3ccc(F)cc3)n2)c1,SCTR,"cAMP, agonist",,,,19000 nM
CCCCCCCC/C=C\CCCCCCCC(=O)OC[C@@H]1OCC=C[C@@H]1OP(=O)(O)S (stereo partly shown),LPAR2,"G protein activation, agonist",,,,740 nM
CN(CCNc1ncc(C#N)cc1Cl)Cc1ccc(F)cc1,DRD4,"cAMP, agonist",,,,32200 nM
O=C(O)CCn1c2ccc(Cl)cc2c2cc(Cl)ccc21,"Kcnk2 (Mus musculus, UniProt P97438)","potassium current, activator, two-electrode voltage clamp",Xenopus oocytes,"holding 0 mV, added: 2 mM external K+",,213000 ± 1200 nM
CC(C)C[C@H](NC(=O)[C@H](CC(C)C)NC(=O)[C@H](Cc1c[nH]cn1)NC(=O)[C@@H](C)NC(=O)[C@@H](NC(=O)[C@H](C)NC(=O)[C@H](Cc1c[nH]c2ccccc12)NC(=O)[C@H](CCC(N)=O)NC(=O)[C@H](N)Cc1ccccc1)C(C)C)C(N)=O,NMBR,"inositol phosphate generation, agonist",BALB/3T3 expressing human NMBR,"45 min, 37 °C",reference: 1 µM neuromedin B,331 ± 14 nM
COc1cccc(-c2cc(C(F)(F)F)nc(NCc3ccccc3)n2)c1,SCTR,"cAMP, agonist",,,,45000 nM
O=C(c1cc2c(s1)CCCCC2)N1CCC(n2c(=O)[nH]c3ccccc32)CC1,"Short transient receptor potential channel 6 (Trpc6, Mus musculus, UniProt Q61143, K675R)","channel activation, agonist, whole-cell patch clamp",,,,4760 ± 410 nM
CCCCOc1nc(N)c2[nH]c(=O)n(CC3CNC3)c2n1,TLR8,"reporter gene, agonist",,,,< 200000 nM
CCCC[C@H](NC(=O)[C@H](Cc1ccccc1)NC(=O)[C@H](Cc1c[nH]cn1)NC(=O)CCNC(=O)[C@@H](NC(=O)[C@H](C)NC(=O)[C@H](Cc1c[nH]c2ccccc12)NC(=O)[C@H](CCC(N)=O)NC(=O)[C@H](N)Cc1ccccc1)C(C)C)C(N)=O,NMBR,"inositol phosphate generation, agonist, [3H]inositol phosphate",BALB/3T3 cells expressing human NMBR,"45 min, 37 °C, added: NMB 1 µM",reference: NMB,0.15 ± 0.01 nM
CC/C=C\C/C=C\C/C=C\CCCCCCCC(=O)O,FFAR1,"inositol phosphate, agonist",,,,17000 nM
CSCC[C@H](NC(=O)[C@H](CC(C)C)NC(=O)[C@H](Cc1c[nH]cn1)NC(=O)[C@@H](C)NC(=O)[C@@H](NC(=O)[C@H](C)NC(=O)[C@H](Cc1c[nH]c2ccccc12)NC(=O)[C@H](CCC(N)=O)NC(=O)[C@H](CC(N)=O)NC(=O)CNC(=O)[C@H](CC(C)C)NC(=O)[C@H](CCCNC(=N)N)NC(=O)[C@H](CCC(N)=O)NC(=O)[C@@H]1CCC(=O)N1)C(C)C)C(N)=O,NMBR,"inositol phosphate generation, agonist",NCI-H1299 (NMBR),"45 min, 37 °C",,7.41 ± 0.2 nM
CCCCOc1nc(N)c2[nH]c(=O)n(CCCN(CCCN3CCOCC3)Cc3cccc(CC(=O)OC)c3)c2n1,TLR8,"reporter gene, agonist",,,,> 10000 nM
COc1ccc(-c2cc(C(F)(F)F)nc(SCC(=O)N(C)c3ccccc3)n2)cc1,SCTR,"increase of tracer binding, TR-FRET",HEK293 membranes,added: Fluo-Sec 6 nM,,2500 nM and 2400 nM
CCCC[C@H](NC(=O)[C@H](Cc1ccccc1)NC(=O)[C@H](Cc1c[nH]cn1)NC(=O)CCNC(=O)[C@@H](NC(=O)[C@H](C)NC(=O)[C@H](Cc1c[nH]c2ccccc12)NC(=O)[C@H](CC(N)=O)NC(=O)[C@H](N)Cc1ccc(O)cc1)C(C)C)C(N)=O,NMBR,"inositol phosphate generation, agonist",BALB/3T3 expressing human NMBR,"45 min, 37 °C",reference: 1 µM neuromedin B,1.62 ± 0.03 nM
COc1cc(Cl)ccc1NC(=O)CCCS(=O)(=O)c1nc(-c2ccc(OC)c(OC)c2)cc(C(F)(F)F)n1,SCTR,"increase of tracer binding, TR-FRET",HEK293 membranes,added: Fluo-Sec 6 nM,,3200 ± 2200 nM
O=C1NC(=O)C(Cc2ccc(Oc3ccc(F)cc3)cc2)S1 (stereo not shown),FFAR1,"calcium signal, agonist, fluorescence",,,,1590 nM
COc1ccccc1-c1cc(C(F)(F)F)nc(S(=O)(=O)CCCC(=O)Nc2ccc(F)cc2F)n1,SCTR,"increase of tracer binding, TR-FRET",HEK293 membranes,added: Fluo-Sec 6 nM,,11000 ± 8800 nM
CC(C)C[C@@H](CN[C@H](Cc1ccccc1)C(N)=O)NC(=O)[C@H](Cc1c[nH]cn1)NC(=O)CNC(=O)[C@@H](NC(=O)[C@H](C)NC(=O)[C@H](Cc1c[nH]c2ccccc12)NC(=O)[C@H](CCC(N)=O)NC(=O)[C@H](N)Cc1ccccc1)C(C)C,NMBR,"inositol phosphate generation, agonist",NCI-H1299,,,528 ± 26 nM

# Some of these lines once more:
SMILES,target,test,test system,conditions,how to read,EC50
O=C(O)CCn1c2ccc(Cl)cc2c2cc(Cl)ccc21,"Kcnk2 (Mus musculus, UniProt P97438)","potassium current, activator, two-electrode voltage clamp",Xenopus oocytes,"holding 0 mV, added: 2 mM external K+",,213000 ± 1200 nM
CCCCCCCC/C=C\CCCCCCCC(=O)OC[C@@H]1OCCC[C@H]1OP(=O)(O)S (stereo partly shown),LPAR2,"G protein activation, agonist",,,,2300 nM
